Experimental data pooled from the literature.
Numbered parts are unrelated; each lists some results of a single study. Changes are numbered by the printed parent chain.

Block 1 — technique: DHFR PCA, deep sequencing; sample: yeast; added: (+)-ABA 710 µM; reference: wild-type fitted maximum; direction: higher = stronger binding
Target: ABI1, truncated, D143A, DHFR fusion (Arabidopsis thaliana)
Setting: methotrexate growth selection, single substitutions
Starting sequence: PYL1, truncated, DHFR fusion (Arabidopsis thaliana); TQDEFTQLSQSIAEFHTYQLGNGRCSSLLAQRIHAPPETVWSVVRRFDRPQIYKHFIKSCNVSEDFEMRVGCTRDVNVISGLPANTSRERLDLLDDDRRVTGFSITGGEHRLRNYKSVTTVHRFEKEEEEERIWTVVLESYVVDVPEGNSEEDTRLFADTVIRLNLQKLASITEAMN
| Change | relative binding score |
| --- | --- |
| H110L | 26.5% |
| V118P | -28.7% |
| Q10T | 103% |
| S26E | 86.1% |
| E129C | 107% |
| E64F | 95.8% |
| T86I | 97.5% |
| S59V | 97.1% |

Block 2 — technique: RNA Bind-n-Seq; form: RNA; sample: in vitro; tested at: 365 nM; reference: no-protein control; direction: higher = stronger binding
Target: RNA binding protein fox-1 homolog 2, RRM domain, GST-SBP tag (RBFOX2, Homo sapiens, UniProt O43251-10, residues 100-194)
Setting: natural RNA segment, single round, ends assumed
Target sequence (chain): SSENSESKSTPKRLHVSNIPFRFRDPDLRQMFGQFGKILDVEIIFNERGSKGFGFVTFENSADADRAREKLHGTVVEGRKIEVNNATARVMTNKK
| Strand | RBNS enrichment (R) |
| --- | --- |
| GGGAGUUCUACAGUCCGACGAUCAGACAAGUGUUUGUAGACUCUGAAGCCUAAUGUUACUCAUGACGUUUGCCUCAUUGCUUUGCUUAUUUAGCAAAUGCAUACAACGAGGAAAGGAGGUGGCUAGUGGUAUCUGGAAUUCUCGGGUGCCAA | 0.403 |
| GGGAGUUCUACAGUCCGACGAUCGGCUUGCCAGACACAGGAAUGGCCCCGAUUAUGUCACCAAUAUUGUCACAUGUGGGCCAAGAAUAGAGUCACAUGUGGUGGAAAGAUGAGGAGUUAGGCUGUAGAAGUGAUGGAAUUCUCGGGUGCCAA | 1.16 |
| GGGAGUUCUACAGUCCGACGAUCAAAUUUGUUUGACUAUUUUAAAAUUAUAUUAGACCUUAAGCUGUUUUAGCAAGCAUUAAAGCAAAUGUAUGGCUGCCUUUUGAAAUAUUUGAUGUGUUGCCUGGCAGGAUUGGAAUUCUCGGGUGCCAA | 2.41 |
| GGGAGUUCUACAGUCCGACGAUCAUUUUGGAAGUAUAUUCAAUACCAAUGCUGUAUGAGUGGGCUGAAUCCAGUUCAUUGUUUUUUUUUUGGUAAGAAGUGAGACUACAGUUCCAGCUACCUACAUGUCUUUUUGGAAUUCUCGGGUGCCAA | 0.744 |
| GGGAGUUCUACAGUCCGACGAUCAGGGCUCUACUUAAAGCACAUGAUGUAGAGCAACUCGCCUCUGCCCUGGGUCUGCAGAAGGCUGAGGACUUUUGGUUAAAAGCAAUCCUCAUGAAAACACCCCACCCUGCUGGAAUUCUCGGGUGCCAA | 1.28 |
| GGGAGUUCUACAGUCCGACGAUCUUGCUACUGACUUUACACAGUUUACAAGUUUCUCUUUGGACAUAUCUGGUAUUAUUACAGAAAUCUCCCAGAUUAUACACAUAAACAUUUUAUGGACAUUUUUUGGGCAUUGGAAUUCUCGGGUGCCAA | 0.536 |
| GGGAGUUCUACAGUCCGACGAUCUUGAGCUACAUCUUGUUGAGCAAGGGGAGUGAAACCACAGAAACUGUUAAAUUGAACGUAAAUAACUUUGGAAAACAGUUUUGACACUAGAACAAGGUCGCUUCUCUUUUUGGAAUUCUCGGGUGCCAA | 0.376 |
| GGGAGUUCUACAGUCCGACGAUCCAUAUCUUUCCAUAUAUCCUAUUAUUUCUGAAUAUAUGUCCUCAAAAUCCCCAUAAAUAUCCAUCCCUUCCUAGAUGGCAUUAACUUUCAUUUUAGAUUUUAGGUGACUCUGGAAUUCUCGGGUGCCAA | 0.351 |

Block 3 — target: CCND2, cyclin fold, Cln2 fusion (human); technique: yeast growth competition, sequencing; sample: yeast; setting: weak parent motif; reference: not given; direction: higher = stronger binding; starting sequence: viral docking peptide; PGASRRLFGSSAD
| Change | normalised enrichment score |
| --- | --- |
| PGASARLFGSSAD [R5A] | -0.0148 |
| PGAARRLFGSSAD [S4A] | 0.133 |
| PGASRRLLGSSAD [F8L] | 0.0102 |
| PGASRRLFASSAD [G9A] | 0.405 |
| PGASRRLAGSSAD [F8A] | 0.1 |
| PGASRRLFGASAD [S10A] | -0.162 |
| PGASARAFGSSAD [R5A L7A] | 0.0997 |
| PGASKRLFGSSAD [R5K] | -0.0679 |
| AGASRRLFGSSAD [P1A] | -0.13 |

Block 4 — technique: competition protein-binding microarray; form: double-stranded DNA, one strand shown; sample: in vitro; tested at: 2 µM; added: Cbf1 competitor, 0.05 µM; direction: higher = stronger binding
Target: Phosphate system positive regulatory protein PHO4, full length, GST-tagged (PHO4, Saccharomyces cerevisiae, UniProt P07270, residues 1-312)
Setting: whole 60-bp probe, lowest competitor level
Construct (chain): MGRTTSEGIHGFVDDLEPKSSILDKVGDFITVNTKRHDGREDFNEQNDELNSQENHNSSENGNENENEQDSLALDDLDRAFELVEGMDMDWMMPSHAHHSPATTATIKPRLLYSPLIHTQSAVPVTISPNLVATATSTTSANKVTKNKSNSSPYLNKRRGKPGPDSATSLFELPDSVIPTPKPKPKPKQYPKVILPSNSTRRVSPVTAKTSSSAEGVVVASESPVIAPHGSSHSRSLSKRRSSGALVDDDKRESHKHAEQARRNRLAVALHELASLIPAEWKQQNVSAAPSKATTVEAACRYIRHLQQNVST
| Strand | fluorescence intensity |
| --- | --- |
| CATGCTTTTGGGTTACCACATTCAACAATAACTCGAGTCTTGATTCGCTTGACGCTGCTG | 5080 a.u. |
| AAAAGTGTCTGGACCTTTTTTTTCTCATGCGATTTTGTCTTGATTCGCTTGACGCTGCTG | 3330 a.u. |
| GTCTTGTCTCATTGAGTGGTGGGTGTCCCCACTTCAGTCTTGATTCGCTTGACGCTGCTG | 4990 a.u. |
| CCAGTGCTGCCCCGCCACATGCAATCGGGCCGTCGGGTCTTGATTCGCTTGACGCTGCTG | 8120 a.u. |
| AAAGCGGTAATTTGATCCGTGGGTGCAGATATCTATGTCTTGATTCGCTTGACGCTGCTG | 5140 a.u. |
| TGAACGCCATTACTAATGCATTTAAAAACTGCTTTTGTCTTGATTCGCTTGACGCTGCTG | 3180 a.u. |
| TGCGCAACAACTTGCCTGGTGGGTGTATGTCTAGAAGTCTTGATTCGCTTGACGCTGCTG | 5760 a.u. |
| CGGGGTTAAGTTTGTCACGCTACTTGCTTGCAGCAGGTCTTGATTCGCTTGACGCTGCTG | 4740 a.u. |

Excerpt of the above (block 3):
| Change | normalised enrichment score |
| --- | --- |
| PGASKRLFGSSAD [R5K] | -0.0679 |
| PGASRRLFASSAD [G9A] | 0.405 |
| PGASARLFGSSAD [R5A] | -0.0148 |
| PGASARAFGSSAD [R5A L7A] | 0.0997 |
| PGASRRLAGSSAD [F8A] | 0.1 |
